Experimental data collected from several papers.
Numbers after ± are the reported error.
Organism: Plasmodium falciparum

Compound | assay | test system | conditions | quantity | result
Cc1cc(C(=O)N[C@@H](CC(=O)NC(C)(C)C)C(=O)NCCNC(=O)c2cccc(-c3ccn[nH]3)c2)no1 | parasite growth | NF54 | 72 h, gametocyte | EC50 | 229 nM
Cc1cc(N2CC[C@@](C#N)(C3CC3)C2=O)cc(NC(=O)Cc2ccccc2)n1 | parasite growth | cPRS conditional knockdown line | 72 h, together with: 12.5 nM anhydrotetracycline | IC50 | 7 nM
CCNCC#CCNc1ccnc2cc(Cl)ccc12 | parasite growth, SYBR Green I | 3D7 | single experiment | IC50 | 30 nM
COc1cccc2c(-c3ccc(O)c4c3CCNC4)ccc(O)c12 | asexual parasite proliferation, SYBR Green I fluorescence | 7G8 | – | IC50 | 183 ± 14 nM
Cc1cc(C(=O)N[C@@H](CC(=O)NC(C)(C)C)C(=O)NCCNC(=O)c2cccc(-n3cccn3)c2)no1 | female gamete activation | NF54 | 48 h | EC50 | > 10000 nM
COc1cc2c(c(OC)c1)C(C)=[N+](c1ccc(OC)c3c(OC)cc(C)cc13)[C@@H](C)C2 | asexual parasite proliferation, SYBR Green I fluorescence | 7G8 | – | IC50 | 710 ± 160 nM
Cc1cc(N2CCC(CO)(C3CC3)C2=O)cc(C(=O)NCc2cc(F)cc(-c3cnn(C)c3)c2)n1 (stereo not drawn) | parasite growth | conditional knockdown control line | 120 h, together with: 50 nM anhydrotetracycline | IC50 | 192 nM
COc1cc(C)c(-c2ccc(O)c3c2C[C@@H](C)N[C@@H]3C)c2cccc(O)c12 (single isomer, unassigned) | asexual parasite proliferation, SYBR Green I fluorescence | 7G8 | – | IC50 | 131 ± 27 nM
Cc1cc(C(=O)N[C@@H](CC(=O)NC(C)(C)C)C(=O)NCCNC(=O)c2cc(-c3ccccc3)ccn2)no1 | parasite growth | NF54 | 72 h, gametocyte | EC50 | 160 nM
COc1cncc(-c2cc(F)cc(CNC(=O)c3cc(N4CC[C@@](C#N)(C5CC5)C4=O)cc(C)n3)c2)c1 | parasite growth | conditional knockdown control line | 72 h, together with: 50 nM anhydrotetracycline | IC50 | 380 nM
CC(C)(C)NC(=O)CC(NC(=O)CCc1ccccc1)C(=O)NCCNC(=O)c1cccc(-c2ccccc2)c1 (stereo not drawn) | parasite growth | NF54 | 24 h, gametocyte | EC50 | 65.1 nM
COc1cccc2c(-c3ccc(O)c4c3CCN=C4)ccc(OC(C)C)c12 | asexual parasite growth, SYBR Green I | clinical isolate SB_04, Malawi | – | IC50 | 338 ± 54 nM

A few entries again:
Compound | assay | test system | conditions | quantity | result
COc1cccc2c(-c3ccc(O)c4c3CCN=C4)ccc(OC(C)C)c12 | asexual parasite growth, SYBR Green I | clinical isolate SB_04, Malawi | – | IC50 | 338 ± 54 nM
